Measurements from different studies.
Compare with care: the assays were run in different laboratories. Numbers after ± are the reported error.
Chain of UniProt P04062 (whole entry, unmodified, looked up): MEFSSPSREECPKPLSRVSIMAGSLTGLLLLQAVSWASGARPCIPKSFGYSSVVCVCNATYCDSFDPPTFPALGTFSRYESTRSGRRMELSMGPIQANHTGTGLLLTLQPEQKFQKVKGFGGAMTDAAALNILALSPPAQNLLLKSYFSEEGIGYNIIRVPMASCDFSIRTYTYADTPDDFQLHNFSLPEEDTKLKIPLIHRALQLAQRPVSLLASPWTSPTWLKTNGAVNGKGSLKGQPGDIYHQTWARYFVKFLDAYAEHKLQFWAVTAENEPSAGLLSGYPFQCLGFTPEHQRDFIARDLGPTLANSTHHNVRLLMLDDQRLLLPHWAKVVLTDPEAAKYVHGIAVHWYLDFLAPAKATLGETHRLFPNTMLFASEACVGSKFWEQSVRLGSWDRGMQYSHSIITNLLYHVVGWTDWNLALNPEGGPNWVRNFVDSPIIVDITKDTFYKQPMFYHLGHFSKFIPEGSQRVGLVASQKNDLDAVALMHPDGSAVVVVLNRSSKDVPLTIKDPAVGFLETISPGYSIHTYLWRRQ

COc1ccc(Oc2ccc(S(=O)(=O)Nc3ccc4c(c3)N(C)C(=O)C4)cc2)cc1 — IC50 (BV-2; PGE2 release, inhibitor; LPS-stimulated): 0.016 µM
OC[C@H]1[C@@H](O)[C@H](O)[C@@H](O)CN1CCCCCOCc1cccc(-c2ccccc2)c1 — IC50 (Lysosomal acid glucosylceramidase (GBA1, Homo sapiens, UniProt P04062, R534H); inhibitor, 4MU-β-D-glucopyranoside; with: 4MU-β-D-glucopyranoside): 20 µM
C=CC(=O)Nc1cc(Nc2nccc(-c3cn(C)c4ccccc34)n2)c(OC)cc1N(C)CCN(C)C — IC50 (Ba/F3 EGFR 19Del/C797S BBT-176-resistant BR2; cell growth; 72 h): > 1 µM
O=C(OC[C@H]1O[C@@H](Oc2ccc(CO)cc2)[C@H](O)[C@@H](O)[C@@H]1O)c1ccc(O)cc1 — IC50 (T47D breast cancer; cell viability, MTT; DMEM with 10% FBS; 48 h): > 200 µM
COc1c(C)c(OCc2ccccc2)c(C)c(OCc2ccccc2)c1C(=O)/C=C/c1ccccc1 — IC50 (FaDu; cell growth or viability, SRB; 72 h): > 50 µM
CCOc1cncc(-c2ccc(NC(=O)C3(c4ccnc(NS(=O)(=O)C5CC5)n4)CCOCC3)nc2)n1 — IC50 (KYSE-70; cell proliferation, CellTiter-Glo; 72 h, Oesophagus cancer): 0.094 µM
CCCCCCC(=O)[O][Pt]([NH2])([NH2])([Cl])([Cl])[O]C(=O)CCC(C)C1CCC2C3CCC4CC(O)CCC4(C)C3CCC12C (stereo not shown) — IC50 (RWPE-1 normal prostate; cell viability, MTT; 72 h): 1.7 ± 0.4 µM
CNS(=O)(=O)Nc1nccc(Cc2c(C)c3ccc(Oc4ncccc4F)cc3oc2=O)c1F — IC50 (Kuramochi; cell viability, CellTiter-Glo; 7 days): > 1 µM
COC(=O)N1c2ccc3c(nc(Cc4ccccc4)n3[C@@H]3CCC[C@@H](C(=O)O)C3)c2CC[C@@H]1C — IC50 (HCC1806; cell growth or viability, ATP luminescence; 10 days): 1.48 µM
O=C1CCC(N2C(=O)c3ccc(N4CCC(C(=O)N5CCC(CCN6CCC(CNC(=O)c7cccc(-c8noc(C(F)(F)F)n8)c7)(c7nc(-c8ccccc8)cs7)CC6)CC5)CC4)cc3C2=O)C(=O)N1 (stereo not shown) — IC50 (JeKo-1; cell growth or viability; 7 days): 0.243 µM
C=CC(=O)N1CCCC(n2c(=O)c3ncccc3n(Cc3ccc(Oc4ccccc4)cc3)c2=O)C1 (stereo not shown) — IC50 (JeKo-1; cell growth or viability, MTT; 72 h): 4 µM
NC(=O)c1ccc(-c2ccccc2Cl)c2c3c([nH]c12)CC[C@H](N)C3 — IC50 (BGC-823; cell growth or viability): 0.0194 µM
COc1cc(-c2cn(C)c(=O)c3cnccc23)c(OC)cc1Cn1ccnc1 — IC50 (Kasumi 1; cell growth or viability, ATP luminescence): 0.4 µM
CC(C)c1ccc(N(C)c2ccc3c(c2)OCC[C@H]3CNc2cnccc2C(=O)O)cc1 — IC50 (SNU-16; cell growth or viability, ATP luminescence; 7 days): 0.00422 µM
CCCCCCCCCC(=O)Oc1c(C)c(OC)c2c(/C=C/c3ccccc3)c(CCCCCCCC)c(=O)oc2c1C — IC50 (FaDu; cell growth or viability, SRB; 72 h): > 50 µM
O=C(NCCOCCNC(=O)c1cc2ccccc2c2ccccc12)c1cc(C(=O)N2CCNCCNCCNCC2)c(O)c(C(=O)N2CCNCCNCCNCC2)c1 — IC50 (PK-59; cell growth or viability, MTT; 24 h): > 1000 µM
CCCCCCCCCC(=O)[O][Pt]([Cl])([Cl])[O]C(=O)CCCCCCCCC.N.N — IC50 (A549/DDP cisplatin-resistant; MTT; 48 h, non-transfected): 6.94 ± 11.6 µM
CC1(C)CC(=O)C(C2C3=C(CC(C)(C)CC3=O)Oc3ccc(Br)cc32)=C(O)C1 (stereo not shown) — IC50 (3T3-L1; cell growth or viability, MTT; 72 h): 10.2 µg/mL
CCCCCCCCCCCCSCC(COCC(O)C[N+](C)(CCO)CCO)SCCCCCCCCCCCC (stereo not shown) — IC50 (BHK-21; cell growth or viability, MTT): 79.9 µM
Cn1ncc(-c2ccc3c(=O)[nH]nc(CN)c3c2)c1-c1c(F)c(Cl)cc(OC2CC2)c1C#N — IC50 (HCC4006; cell viability, inhibitor, CellTiter-Glo; 120 h, baseline-subtracted): 0.05 µM
O=C(NCCOCCOCCOCCNC(=O)c1cc2ccccc2c2ccccc12)c1cc(C(=O)N2CCNCCNCCNCC2)c(O)c(C(=O)N2CCNCCNCCNCC2)c1 — IC50 (PK-59; cell growth or viability, MTT; 24 h): > 1000 µM
CC(C)OC(=O)[C@H](CO)NCc1cc(Cl)c(OCc2cccc(-c3ccccc3)c2Br)cc1OCc1cccnc1 — IC50 (HK-2; cell growth or viability, MTT): > 10 µM
CC(C)=CC1OC(C)(C)C2C=C3C(=O)C(Cl)=CC(O)C3C3C(O)C4OC4C(=O)C132 (stereo not shown) — IC50 (KARPAS-299; cell growth or viability, MTS): 0.63 µM
CN1CC[C@@H](COc2cnc(C#N)cc2-c2ccn3nc(NC(=O)C4CC4)cc3c2)C1 — IC50 (human T cells; T cell activation, refers to: IL-2; with: anti-CD3/anti-CD28): ~6.6 µM
C=C1C(=O)OC2C1CCC(C)(O)C13C=CC(C)(C21)C1(C3)C(=O)OC2C3C(C)=CC(=O)C3=C(C)CCC21 (stereo not shown) — IC50 (AML12; lipid accumulation, Nile Red staining; with: palmitate/oleate): 7.12 ± 0.73 µM
Cc1ccc(Nc2nc(NCc3ccco3)c3ccccc3n2)cc1 — translation activity (Trypanosoma cruzi; reporter mRNA translation, inhibitor, refers to: Renilla luciferase mRNA; cell-free extract; concentration not given, test 2; reference: positive over negative control): 79.2%
CC1(C)CC(=O)C2=C(C1)Oc1ccc3ccccc3c1C2c1c[nH]c2ccccc12 (stereo not shown) — IC50 (3T3-L1; cell growth or viability, MTT; 72 h): > 100 µg/mL
N#Cc1c(N)nc2c(c1-c1ccc(CO)o1)Cc1cc(O)ccc1-2 — IC50 (HBP-ALL; cell viability, CellTiter-Glo; no inhibition at 100 µM): 6.3 µM
Cc1cc(Cl)c(OCCOCCN2CCN(C)CC2)c(Br)c1.O=C(O)C(=O)O — translation activity (Trypanosoma cruzi; reporter mRNA translation, inhibitor, refers to: Renilla luciferase mRNA; cell-free extract; concentration not given, test 2; reference: positive over negative control): 109%
CC1(C)CC(=O)C2=C(C1)Oc1ccc(Cl)cc1C2c1c(C(=O)O)[nH]c2ccccc12 (stereo not shown) — IC50 (3T3-L1; cell growth or viability, MTT; 72 h): 16.3 µg/mL
CCn1nc(Cl)c2c1-c1cnc(N)c(c1)O[C@H](C)c1cc(F)ccc1-c1nn(C)cc1C2 — IC50 (Ba/F3 CLIP1-LTK; cell viability): 0.0019 µM

A few entries again:
COc1ccc(Oc2ccc(S(=O)(=O)Nc3ccc4c(c3)N(C)C(=O)C4)cc2)cc1 — IC50 (BV-2; PGE2 release, inhibitor; LPS-stimulated): 0.016 µM
O=C(NCCOCCOCCOCCNC(=O)c1cc2ccccc2c2ccccc12)c1cc(C(=O)N2CCNCCNCCNCC2)c(O)c(C(=O)N2CCNCCNCCNCC2)c1 — IC50 (PK-59; cell growth or viability, MTT; 24 h): > 1000 µM
CC1(C)CC(=O)C2=C(C1)Oc1ccc3ccccc3c1C2c1c[nH]c2ccccc12 (stereo not shown) — IC50 (3T3-L1; cell growth or viability, MTT; 72 h): > 100 µg/mL
